{"data": "Measurements collected from several papers", "note": "Protocols differ between the studies behind these lines. Values joined by “and” are separate records of one study, mostly repeats; a detail may differ."}
{"Structure (SMILES)": "Oc1ccccc1-c1n[nH]cc1-c1ccnc2ccccc12", "tested on": "AKL1 (Candida albicans)", "test": "kinase binding, MIB/MS competition", "system": "Candida albicans lysate", "conditions": "1 µM", "how to read": "relative to: DMSO", "quantity": "log2 fold change", "value": -0.01}
{"Structure (SMILES)": "CC(C)n1ncc2c(C(=O)NCC3(C)CNC3)cc(C3CC3)nc21", "tested on": "Enterovirus D68", "test": "time-of-addition", "system": "RD, US/MO/14-18947", "conditions": "3 µM, 0 to 0 h post infection", "quantity": "virus titre", "value": "200 PFU/mL and 400 PFU/mL"}
{"Structure (SMILES)": "CN(C)CCC(=O)Nc1ccc(C2CCCCC2)cc1", "test": "hepatocyte stability", "system": "cryopreserved human hepatocytes", "conditions": "1 µM", "quantity": "hepatic clearance", "value": "14 mL/min/kg"}
{"Structure (SMILES)": "COc1cc(Nc2nccc(Nc3ccc4c(C)n[nH]c4c3)n2)cc(OC)c1OC", "tested on": "Trypanosoma brucei", "conditions": "unit not given", "how to read": "relative to: pEC50 T. brucei minus pTC50 HepG2", "quantity": "selectivity", "value": 1.6}
{"Structure (SMILES)": "CC(C)C[C@@H](C=O)NC(=O)[C@H](CC(C)C)NC(=O)[C@H](CC(C)C)NC(=O)OCc1ccccc1", "tested on": "Mus musculus", "test": "gene silencing, high-content imaging", "system": "LDR reporter GFP cells", "conditions": "confirmation, mean of two runs", "quantity": "EC50", "value": "5.62 µM"}
{"Structure (SMILES)": "CCCN1CCC=C(c2ccc(Nc3nc(Nc4ccccc4C(N)=O)c4cc[nH]c4n3)c(C)c2)C1", "tested on": "Trypanosoma brucei", "conditions": "unit not given", "how to read": "relative to: pEC50 T. brucei minus pTC50 HepG2", "quantity": "selectivity", "value": 1.3}
{"Structure (SMILES)": "c1coc(-c2n[nH]cc2-c2ccnc3ccccc23)c1", "tested on": "POM1 (Candida albicans)", "test": "kinase binding, MIB/MS competition", "system": "Candida albicans lysate", "conditions": "1 µM", "how to read": "relative to: DMSO", "quantity": "log2 fold change", "value": -0.26}
{"Structure (SMILES)": "CC(C)NCC(O)c1ccc(O)c(O)c1 (centres unmarked)", "system": "ventricular cardiomyocytes, C57BL/6 mouse", "conditions": "dose not given, 0.812 s", "quantity": "sarcomere length", "value": "1.58 µm"}
{"Structure (SMILES)": "O=C(Nc1ccc([C@H]2[C@@H](F)[C@@H](F)C[C@@H](F)[C@H]2F)cc1)c1cn[nH]c1", "system": "cynomolgus liver microsomes", "conditions": "1 µM", "quantity": "hepatic clearance", "value": "7.4 mL/min/kg"}
{"Structure (SMILES)": "Cn1cc(-c2ccc(-c3cncc(Cl)c3N3CCC4(CCNC4=O)CC3)cc2)cn1", "tested on": "COLO 205", "test": "gene expression, microarray, refers to: HIST1H4D mRNA", "conditions": "concentration not given, 6 h", "how to read": "relative to: untreated cells", "quantity": "log2 fold change", "value": -2.49}
{"Structure (SMILES)": "Nc1nonc1-c1nc2cnccc2n1C1CCCCC1", "tested on": "Trypanosoma brucei", "conditions": "unit not given", "how to read": "relative to: pEC50 T. brucei minus pTC50 HepG2", "quantity": "selectivity", "value": 1.6}
{"note": "For quick reference, copied from above:"}
{"Structure (SMILES)": "CN(C)CCC(=O)Nc1ccc(C2CCCCC2)cc1", "test": "hepatocyte stability", "system": "cryopreserved human hepatocytes", "conditions": "1 µM", "quantity": "hepatic clearance", "value": "14 mL/min/kg"}
{"Structure (SMILES)": "CCCN1CCC=C(c2ccc(Nc3nc(Nc4ccccc4C(N)=O)c4cc[nH]c4n3)c(C)c2)C1", "tested on": "Trypanosoma brucei", "conditions": "unit not given", "how to read": "relative to: pEC50 T. brucei minus pTC50 HepG2", "quantity": "selectivity", "value": 1.3}
